# Measurements gathered from unrelated publications.
# Numbered parts are unrelated; each lists some results of a single study.

# Study 1
# Target: RING finger protein unkempt homolog, zinc fingers 1-6, GST-SBP tag (UNK, Homo sapiens, UniProt Q9C0B0, residues 30-357)
# UniProt Q9C0B0, sequence (30-357, looked up): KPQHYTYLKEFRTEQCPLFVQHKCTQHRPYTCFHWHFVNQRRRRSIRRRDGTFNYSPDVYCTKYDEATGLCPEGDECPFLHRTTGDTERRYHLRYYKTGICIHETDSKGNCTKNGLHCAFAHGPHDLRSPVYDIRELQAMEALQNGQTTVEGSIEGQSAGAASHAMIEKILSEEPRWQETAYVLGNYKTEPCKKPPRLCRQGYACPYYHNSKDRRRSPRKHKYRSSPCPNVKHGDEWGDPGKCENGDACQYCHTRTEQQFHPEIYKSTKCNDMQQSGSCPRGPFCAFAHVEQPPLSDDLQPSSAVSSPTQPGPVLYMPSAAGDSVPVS
# Technique: RNA Bind-n-Seq
# Molecule type: RNA
# Sample: in vitro
# Concentration: not given
# Setting: RNA with constant flanks, human and mouse sites, ends assumed
# Baseline: input RNA pool
# Direction: higher = stronger binding
# All sequences stand within: GGGAGUUCUACAGUCCGACGAUC … CAACAGAGGAUUGAGCAUCA
Sequence,bound/input enrichment [ratio]
UUCUCCGGUGGAGAAACUGCAGAGGACUGGUGGGCGGGGCUCCCCAGCCAUCACCAUCCUGUGUACAAUGGCUGUAGACUUGUAUAUGGCUCCUUUAAUAUUGUAAAGAUGCUGAUGUAC,20.7
CUUACCUCUUGCAAAAAAAAGAAAAAAGAAAAAAGUUCAUUUAUUCAUUCUGUUUCUAUAUAGCAAAACUGAAUGUCAAAAGUACCUUCUGUCCACACACACAAAAUCUGCAUGUAUUGG,0.527
AUAUCUAUACACACAUGUGUGUUGUGUAUAUGCAUGUGUGUGUGUGCGUGUGUGUAUAGUUUUAGCUCCAAGCCAAGCAAGUUUGUGUUUGGAUAGAGGGGAACUUAACUAUUAACUACA,0.143
GAACAGUCCCAGGGCUCCACCACAAAUAGUGACUGGAUGAAAAACCUCAUCUCCCCUGACUUAGGAGUUGUAUUUCUCAAUGUACCUGAAAAUCUCAAAAAUCCAGAGCCAAACAUCAAG,0.339
CAUCAACUUCUUGCAUUGAAAGAACAGGAACACAGGAAGGAACUUGAAACAAGGGAGUUUUUUACUGAUGCUGACUUCCAGGAUGCCUUAGCUAAAGAAAUAGCCAAAGAAGAGAAAAAG,0.363
GUUGCUAUGCAACUCUUGCAGAUCCUGGAGCCGAAGAUGUUUCGCUAUGCUCACAAACUGGAGGUUCAGAGAACGGAUGGAGUCCUCAGUCAGCUGUCCCCGCUGCCACAUCUCUAUUCU,0.24
GUUACAGGCCCUGGUGGAGUUCCAGUUCAAGGCAGUAAAUACGCAGCAGACCGUAACCAUUAUAGACGCUAUCCACGUCGUAGGGGUCCUCCACGCAAUUACCAGCAAAAUUACCAGAAU,0.226
UUCUAUGACCCUGACACCAGCAUCAUUUACUUAUGUGGAAAGGGUGACAGCAGUAUUCGCUAUUUUGAGAUCACGGAUGAAUCCCCGUACGUCCACUACCUCAACACAUUCAGCAGCAAG,0.175
CCACAGCCCUUAUUACAGCAGCCUCAGCAAAAAGCUGGUUUAUUGCAGCCUCCUGUUCGUAUAGUUUCACAGCCACAACCGGCACGACGAUUAGAUCCCCCAUCCCGAUUUUCAGGAAGA,1.24
AUCACCCAGCUGAAUCUUAGCGGCUACAGAAAGAAUCUCCAGAAAUCAGAUCUCUCUACUUUAGUUAGAAGAUGCCCCAAUCUUGUCCAUCUAGACUUAAGUGAUAGUGUCAUGCUAAAG,1.75
GAAUUGAUUAAAGAGAAACUCAUUUUUCCCUACGUGGAAUUGGAUCUACAUAGCUAUGAUUUAGGCAUAGAGAAUCGUGAUGCCACCAACGACCAAGUCACCAAGGAUGCUGCAGAAGCU,2.16

# Study 2
# Target: Ras GTPase-activating protein-binding protein 1, full length (G3BP1, Homo sapiens, UniProt Q13283)
# UniProt Q13283, sequence (whole entry, looked up): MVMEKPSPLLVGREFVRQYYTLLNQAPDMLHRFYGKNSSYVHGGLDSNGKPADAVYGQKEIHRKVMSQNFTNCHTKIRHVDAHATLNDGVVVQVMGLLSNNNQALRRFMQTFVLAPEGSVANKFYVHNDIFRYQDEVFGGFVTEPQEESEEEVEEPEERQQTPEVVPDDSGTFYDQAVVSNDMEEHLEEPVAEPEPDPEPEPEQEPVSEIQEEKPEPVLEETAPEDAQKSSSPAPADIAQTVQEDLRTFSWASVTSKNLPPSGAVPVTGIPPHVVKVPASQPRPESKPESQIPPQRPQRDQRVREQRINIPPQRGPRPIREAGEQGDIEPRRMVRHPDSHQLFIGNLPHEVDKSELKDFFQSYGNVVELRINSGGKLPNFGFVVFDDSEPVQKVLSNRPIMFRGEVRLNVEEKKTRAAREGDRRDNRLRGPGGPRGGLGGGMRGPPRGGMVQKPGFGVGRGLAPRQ
# Technique: RNA Bind-n-Seq
# Molecule type: RNA
# Sample: in vitro
# Concentration: 200 nM
# Setting: whole 134-nt RNA, ends assumed
# Together with: 150 mM KCl
# Baseline: input library
# Direction: higher = stronger binding
# All sequences stand within: GGGAGUUCUACAGUCCGACGAUC … UGGAAUUCUCGGGUGUCAAGG
Sequence,log2 enrichment
CAAGUCCUGUGCUACACAUCGUAUGUACCGAAUCGGAAAAGGAAAAGGAAAAGGGGAAAGUAUUAUGUUACGCCGUUCGGAUCUGCACUU,-0.883
UCCUGUGCUACACAUCGUAUGUACCGAAUCGGUUUUUUGGUUUUUUGGGGUUUUUUGGGGAAAGUAUUAUGUUACGCCGUUCGGAUCUGC,-0.615
AGUCCUGUGCUACACAUCGUAUGUACCGAAUCGGGUUUUUUUGGGUUUUUGGGAGGGAAAGUAUUAUGUUACGCCGUUCGGAUCUGCACU,-0.178
CAAGUCCUGUGCUACACAUCGUAUGUACCGAAUCGGGGUUUGGGUUUGGGUUUGGGAAAGUAUUAUGUUACGCCGUUCGGAUCUGCACUU,0.803
UGGGAGGUGGAUUUUGUUUAUUUUUUUAGCUCAUUUCCAGGGGUGGGAAUUUUUUUUUAAUAUGUGUCAUGAAGAAAGUUGUUUUUGAAA,0.22
UGGCCCUGGUGGCAUGCGGGGAGGAAGAGGUGGCCUCAUGGAUCGUGGUGGUCCCGGUGGAAUGUUCAGAGGUGGACGUGGUGGAGACAG,0.365
AGUCCUGUGCUACACAUCGUAUGUACCGAAUCGGAAAAGGGGAAAAGGGGAAAAGGGGAAAGUAUUAUGUUACGCCGUUCGGAUCUGCAC,-0.0427
CCUGUGCUACACAUCGUAUGUACCGAAUCAAACCCCCAAACCCCCCCAAACCCCCCCAAAAAAGUAUUAUGUUACGCCGUUCGGAUCUGC,0.218

# Study 3
# Target: Histone acetyltransferase KAT6A, winged helix 1, GST fusion (KAT6A, Homo sapiens, UniProt Q92794, residues 1-85)
# Technique: protein binding microarray
# Molecule type: double-stranded DNA, one strand shown
# Sample: in vitro
# Concentration: not given
# Setting: 8-mer, flanks averaged, mean of 2 arrays, mostly near background
# Baseline: not given
# Direction: higher = stronger binding
# Target sequence (chain): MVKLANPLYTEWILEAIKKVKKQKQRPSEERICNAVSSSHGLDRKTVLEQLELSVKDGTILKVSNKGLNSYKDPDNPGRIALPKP
Sequence,E-score
TCACACGA,-0.14
ATGTACAG,-0.167
ACGCCTCA,-0.0193
CTATGACC,-0.0247
ATACTAAA,-0.068
GAAACCCA,-0.131
TCAAGGAA,-0.075
ACCGAGAC,0.0216
GGGAATTA,-0.03
AAAACAGA,-0.0496
AAAGACTA,-0.0354
CAAACGTC,0.0146
CGATACGC,0.316
AGGCAATA,-0.093
CGTTCCAA,-0.176
AGCCGTAT,0.322
AACTATGT,-0.113
ATATCGAG,-0.00026

# Study 4
# Target: PABPC1L2, full length, GST fusion (mouse, UniProt A0ABA7IW68)
# Technique: RNAcompete
# Molecule type: RNA
# Sample: in vitro
# Concentration: 20 nM
# Setting: 7-mer, probes averaged, single round
# Baseline: mean of 7-mers
# Direction: higher = stronger binding
# Target sequence (chain): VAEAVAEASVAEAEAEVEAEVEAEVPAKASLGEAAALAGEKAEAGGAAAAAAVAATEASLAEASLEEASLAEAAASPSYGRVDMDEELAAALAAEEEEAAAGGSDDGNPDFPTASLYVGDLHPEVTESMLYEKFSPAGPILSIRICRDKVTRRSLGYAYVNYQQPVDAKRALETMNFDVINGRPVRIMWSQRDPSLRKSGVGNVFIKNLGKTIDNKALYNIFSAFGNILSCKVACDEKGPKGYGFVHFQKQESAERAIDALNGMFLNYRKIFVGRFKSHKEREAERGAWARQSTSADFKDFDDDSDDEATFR
Sequence,7-mer Z-score
GGCCAUU,-0.079
CGCGGCG,-0.184
GAACCGU,-0.208
ACAUACC,-0.206
AGCCCGG,-0.121
UAUCGAA,-0.0645
GCUUAAC,-0.208
UAUAAUC,-0.164
AGAUUAG,-0.0536
UAUCAAA,0.588
AAUUCUG,-0.0863
AAGUGAA,0.644
GUAACAC,-0.0536
AAACCGG,1.06
UCAACCA,-0.184
GCUAGAC,0.00979

# Study 5
# Target: RNA binding protein fox-1 homolog 2, RRM domain, GST-SBP tag (RBFOX2, Homo sapiens, UniProt O43251-10, residues 100-194)
# Technique: RNA Bind-n-Seq
# Molecule type: RNA
# Sample: in vitro
# Concentration: 365 nM
# Setting: natural RNA segment, single round, ends assumed
# Baseline: no-protein control
# Direction: higher = stronger binding
# All sequences stand within: GGGAGUUCUACAGUCCGACGAUC … UGGAAUUCUCGGGUGCCAA
# Construct (chain): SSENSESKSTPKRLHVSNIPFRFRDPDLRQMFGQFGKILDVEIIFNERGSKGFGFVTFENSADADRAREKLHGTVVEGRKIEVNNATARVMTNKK
Sequence,RBNS enrichment (R)
UUUAAUGAAGAAAGUGGAAAACAAGGAAGUCAAAGCAAGGAAACUAUGUAACAUGUAGGAAGUAGGAAGUAAAUUAUAGUGAUGUAAUCUUGAAUUGUAACUGUUCUUGA,0.955
UUCCGAGUGGCAUUUAAGUGCACAAAUGAUAACAAGAGGAUUAUUCUCCCGUUCUCAAGGGAGUCAGAUCAGGGGAACUAUUCUAGGGUAUGUUGCGGGGUAUUAAGCAG,1.16
UGUGCACGUGCUUCAGACUCAUUUGCGAGGGAAUGCUUUCUGUAUGAGAGGGAGACGGUAGGCCUUACCACUCAGACCUGGACGUAUAAGUGCUCACUUUUCCAACACAU,1.41
UACCGUGACACCACGCAUGGCCAGAGCUAGCGUCCCUACUGCCUCCCGACUCCUCAGUGGAGGAGGAGCUGCGGUCCCUCUGGUGUCUGCCAUCCCCCUCCCUCCCUGGG,0.291
GCAAAAUGUCUGUGGAGAUGGAUGGACUGAAAGAGCCGGAUUCCUCACACACAGGGGCAGCCAGUGCUUCUGGGGCCCUGGUUGGGGUUCACCCGAGAUGCCCAGGGGUA,0.548
GACACAAAAAGUAGCCACUGCGGUUAAAGCUUUGCUUAUUGUAACAGGCUUUUAUUUCCAGGUAACCUAUCUGUGGAAGACCUAAUUCUGAAUAGAGUAAUAGAUAUUAC,0.375
CCCACUCGACGCCUUCCUCAACUGCAGCUGGCCACUAACACUGCUUCUGGGGACUUGGCUGCCAAGUGAUAAAAACGUUAACGACCUUUAAGUACUCUUCCAGAUGAGAG,0.466
CUGAUUUGUUCUCUGGAUAAAUUAGCAUAGUUAUUUUUUUAUUCACAUUUACAUUUCUAAGUAGUUGUAUAGUAGAAGCAGGAAGCUCUUAUUGCUUAUUUGGUCGUAAU,1.03
AUCAUGUUGUCUGUGUUGUGUUAUGUGAGAAUUUUCUCCUAAGUCAUGCAGGUAAUGACAAUAUACUGUAAAUACCACAUGUGAGUUUACCUGAAUCUGUGCAUUUUGUG,0.767
AAUUCAUGAGAGACUAAAUGUGAGGGAGAGGUGGAUUUAAAGAGGCCAGACCUUAACCAAAGAUGCUGAGAUACAGCAUUCUGUCCCCCCUGCCCUAGAAACUCCAUAAA,0.4
AAGGCAAGCCUCAGACCAGCAAUAAAUUACUCAGUUUGGAUAACAUUAUUUUGUGCAGUUAAUCAAAUUUGCCAAAGUCUUUAUCUGCCCCUUUAACAAGUUGAGUAAAA,0.464
UGAGUUUCCUUCCCCCUCCCCCCAAUUCAAACCAGGCAGUUUUUUUGGAAGCCAGGUUUCCUUACACUAAGGUAGGUCUAGGUUCUUCGGAAACUAAGAUAAACUUAGUG,0.424

# Excerpt of the above (study 4):
Sequence,7-mer Z-score
ACAUACC,-0.206
AGCCCGG,-0.121
UAUCGAA,-0.0645
GCUUAAC,-0.208
UAUAAUC,-0.164
AGAUUAG,-0.0536
